Experimental data collected from several papers.
Compare with care: the assays were run in different laboratories.
UniProt P78362, sequence (whole entry, looked up): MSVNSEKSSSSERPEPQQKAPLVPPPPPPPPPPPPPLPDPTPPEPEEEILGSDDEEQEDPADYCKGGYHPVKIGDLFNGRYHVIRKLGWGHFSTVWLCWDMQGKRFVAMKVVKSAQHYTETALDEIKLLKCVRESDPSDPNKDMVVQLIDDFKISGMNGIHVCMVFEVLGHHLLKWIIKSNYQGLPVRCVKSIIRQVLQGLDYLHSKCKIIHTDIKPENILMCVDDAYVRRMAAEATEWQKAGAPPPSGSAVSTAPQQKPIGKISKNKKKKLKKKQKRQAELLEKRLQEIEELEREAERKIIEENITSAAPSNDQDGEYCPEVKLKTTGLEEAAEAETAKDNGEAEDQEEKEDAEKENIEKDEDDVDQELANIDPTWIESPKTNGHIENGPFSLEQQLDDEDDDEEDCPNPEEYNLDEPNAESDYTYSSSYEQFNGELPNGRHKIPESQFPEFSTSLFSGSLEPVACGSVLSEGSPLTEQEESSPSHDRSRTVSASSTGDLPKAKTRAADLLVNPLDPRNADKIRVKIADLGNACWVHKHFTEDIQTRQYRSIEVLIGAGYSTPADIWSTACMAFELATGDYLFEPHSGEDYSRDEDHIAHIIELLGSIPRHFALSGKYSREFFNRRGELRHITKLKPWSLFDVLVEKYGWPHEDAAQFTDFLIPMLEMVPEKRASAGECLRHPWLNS
UniProt P42336, sequence (whole entry, unmodified, looked up): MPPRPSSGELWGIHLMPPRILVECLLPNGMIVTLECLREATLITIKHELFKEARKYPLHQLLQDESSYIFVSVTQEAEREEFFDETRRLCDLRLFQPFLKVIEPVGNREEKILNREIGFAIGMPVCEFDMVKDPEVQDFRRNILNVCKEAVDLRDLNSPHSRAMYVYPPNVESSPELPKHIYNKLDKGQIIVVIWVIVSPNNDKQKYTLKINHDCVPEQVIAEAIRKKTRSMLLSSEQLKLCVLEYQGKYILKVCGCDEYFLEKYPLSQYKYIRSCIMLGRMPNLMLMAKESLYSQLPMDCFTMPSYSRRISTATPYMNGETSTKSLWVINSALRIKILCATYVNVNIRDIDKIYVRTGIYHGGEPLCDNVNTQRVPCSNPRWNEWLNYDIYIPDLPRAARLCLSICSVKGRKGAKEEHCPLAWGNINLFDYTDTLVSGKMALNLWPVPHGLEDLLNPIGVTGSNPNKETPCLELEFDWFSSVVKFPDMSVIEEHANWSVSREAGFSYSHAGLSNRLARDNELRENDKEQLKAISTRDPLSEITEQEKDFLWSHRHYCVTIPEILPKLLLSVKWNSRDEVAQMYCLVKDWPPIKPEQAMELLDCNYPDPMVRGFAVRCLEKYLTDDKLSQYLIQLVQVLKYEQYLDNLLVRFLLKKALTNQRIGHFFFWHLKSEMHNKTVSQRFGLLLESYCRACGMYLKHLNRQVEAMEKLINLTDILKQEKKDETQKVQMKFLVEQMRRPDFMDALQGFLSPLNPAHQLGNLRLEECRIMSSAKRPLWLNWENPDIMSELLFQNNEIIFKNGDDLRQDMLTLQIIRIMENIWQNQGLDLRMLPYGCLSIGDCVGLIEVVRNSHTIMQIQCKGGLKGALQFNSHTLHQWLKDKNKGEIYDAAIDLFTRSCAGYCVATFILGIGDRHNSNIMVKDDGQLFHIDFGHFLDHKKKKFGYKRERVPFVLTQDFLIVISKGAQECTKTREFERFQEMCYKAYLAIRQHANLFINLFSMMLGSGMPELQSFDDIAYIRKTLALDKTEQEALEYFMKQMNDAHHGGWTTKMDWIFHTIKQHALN
UniProt P27361, sequence (whole entry, looked up): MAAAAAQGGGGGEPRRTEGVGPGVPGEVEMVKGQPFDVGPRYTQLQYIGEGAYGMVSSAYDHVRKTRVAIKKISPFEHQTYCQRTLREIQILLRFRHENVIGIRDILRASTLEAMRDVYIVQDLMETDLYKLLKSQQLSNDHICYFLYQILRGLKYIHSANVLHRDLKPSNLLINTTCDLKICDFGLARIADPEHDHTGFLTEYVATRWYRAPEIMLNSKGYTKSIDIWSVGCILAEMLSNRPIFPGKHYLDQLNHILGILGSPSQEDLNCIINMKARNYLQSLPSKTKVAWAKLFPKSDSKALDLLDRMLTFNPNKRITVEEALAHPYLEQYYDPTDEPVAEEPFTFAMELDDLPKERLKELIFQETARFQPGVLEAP
UniProt Q92731, sequence (whole entry, looked up): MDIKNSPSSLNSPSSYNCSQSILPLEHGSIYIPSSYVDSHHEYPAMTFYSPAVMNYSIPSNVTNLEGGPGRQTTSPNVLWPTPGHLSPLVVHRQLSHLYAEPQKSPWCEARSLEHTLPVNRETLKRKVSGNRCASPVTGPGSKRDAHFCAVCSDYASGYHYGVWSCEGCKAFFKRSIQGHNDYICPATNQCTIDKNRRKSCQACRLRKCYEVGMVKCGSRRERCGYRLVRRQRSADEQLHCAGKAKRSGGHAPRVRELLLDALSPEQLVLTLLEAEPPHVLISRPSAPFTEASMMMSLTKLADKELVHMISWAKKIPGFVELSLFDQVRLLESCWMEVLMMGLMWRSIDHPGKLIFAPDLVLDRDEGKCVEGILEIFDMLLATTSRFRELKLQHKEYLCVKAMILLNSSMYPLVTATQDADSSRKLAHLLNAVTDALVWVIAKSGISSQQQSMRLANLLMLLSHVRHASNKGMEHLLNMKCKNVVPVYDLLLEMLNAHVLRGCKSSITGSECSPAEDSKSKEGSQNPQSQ
UniProt O75608, sequence (whole entry, looked up): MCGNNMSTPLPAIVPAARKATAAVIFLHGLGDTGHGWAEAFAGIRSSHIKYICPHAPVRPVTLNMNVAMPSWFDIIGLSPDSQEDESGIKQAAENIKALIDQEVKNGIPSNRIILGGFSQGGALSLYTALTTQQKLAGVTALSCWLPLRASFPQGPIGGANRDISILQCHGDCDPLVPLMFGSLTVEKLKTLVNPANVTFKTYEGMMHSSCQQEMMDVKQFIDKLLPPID
UniProt Q99623, sequence (whole entry, looked up): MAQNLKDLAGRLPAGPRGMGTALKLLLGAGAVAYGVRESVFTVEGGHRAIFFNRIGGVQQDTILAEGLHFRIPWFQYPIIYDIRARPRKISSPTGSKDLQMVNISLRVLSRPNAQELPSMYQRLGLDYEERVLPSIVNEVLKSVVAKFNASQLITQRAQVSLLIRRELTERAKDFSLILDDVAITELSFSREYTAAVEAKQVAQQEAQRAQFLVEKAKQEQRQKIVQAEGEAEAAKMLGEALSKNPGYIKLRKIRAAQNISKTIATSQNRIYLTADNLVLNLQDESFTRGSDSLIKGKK
UniProt P21728, sequence (whole entry, looked up): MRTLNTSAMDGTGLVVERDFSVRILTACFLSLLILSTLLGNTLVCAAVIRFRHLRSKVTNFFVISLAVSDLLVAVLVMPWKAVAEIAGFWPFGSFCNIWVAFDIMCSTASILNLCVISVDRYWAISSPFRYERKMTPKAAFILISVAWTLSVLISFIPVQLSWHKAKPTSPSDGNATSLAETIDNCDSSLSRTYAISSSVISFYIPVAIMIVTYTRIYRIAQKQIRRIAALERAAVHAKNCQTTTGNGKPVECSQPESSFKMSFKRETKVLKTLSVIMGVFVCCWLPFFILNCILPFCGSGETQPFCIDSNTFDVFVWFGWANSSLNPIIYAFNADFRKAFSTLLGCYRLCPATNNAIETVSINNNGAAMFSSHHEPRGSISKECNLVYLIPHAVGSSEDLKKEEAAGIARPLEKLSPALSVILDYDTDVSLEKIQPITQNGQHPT
UniProt Q9BZL6, sequence (whole entry, looked up): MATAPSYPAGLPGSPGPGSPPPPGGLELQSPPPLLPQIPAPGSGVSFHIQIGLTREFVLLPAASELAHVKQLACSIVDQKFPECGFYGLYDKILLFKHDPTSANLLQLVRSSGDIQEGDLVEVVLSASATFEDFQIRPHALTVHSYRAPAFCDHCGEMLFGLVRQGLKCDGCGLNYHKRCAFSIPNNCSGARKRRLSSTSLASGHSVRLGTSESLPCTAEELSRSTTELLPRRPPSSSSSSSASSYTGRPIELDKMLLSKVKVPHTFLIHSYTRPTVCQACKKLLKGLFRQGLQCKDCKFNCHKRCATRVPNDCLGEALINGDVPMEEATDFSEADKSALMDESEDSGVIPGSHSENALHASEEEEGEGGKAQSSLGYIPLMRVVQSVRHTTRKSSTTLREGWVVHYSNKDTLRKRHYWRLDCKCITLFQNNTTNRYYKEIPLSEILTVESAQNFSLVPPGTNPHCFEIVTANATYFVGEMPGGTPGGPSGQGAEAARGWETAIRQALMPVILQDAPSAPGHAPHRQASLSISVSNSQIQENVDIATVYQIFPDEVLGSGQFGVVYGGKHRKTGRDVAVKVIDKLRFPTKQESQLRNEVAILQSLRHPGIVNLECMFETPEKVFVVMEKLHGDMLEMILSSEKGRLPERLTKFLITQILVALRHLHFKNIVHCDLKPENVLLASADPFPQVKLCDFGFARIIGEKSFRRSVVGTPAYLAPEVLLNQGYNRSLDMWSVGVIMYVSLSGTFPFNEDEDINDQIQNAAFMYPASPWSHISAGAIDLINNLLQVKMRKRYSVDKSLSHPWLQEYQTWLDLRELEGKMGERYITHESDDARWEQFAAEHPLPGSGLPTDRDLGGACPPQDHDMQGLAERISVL
UniProt O14757, sequence (whole entry, looked up): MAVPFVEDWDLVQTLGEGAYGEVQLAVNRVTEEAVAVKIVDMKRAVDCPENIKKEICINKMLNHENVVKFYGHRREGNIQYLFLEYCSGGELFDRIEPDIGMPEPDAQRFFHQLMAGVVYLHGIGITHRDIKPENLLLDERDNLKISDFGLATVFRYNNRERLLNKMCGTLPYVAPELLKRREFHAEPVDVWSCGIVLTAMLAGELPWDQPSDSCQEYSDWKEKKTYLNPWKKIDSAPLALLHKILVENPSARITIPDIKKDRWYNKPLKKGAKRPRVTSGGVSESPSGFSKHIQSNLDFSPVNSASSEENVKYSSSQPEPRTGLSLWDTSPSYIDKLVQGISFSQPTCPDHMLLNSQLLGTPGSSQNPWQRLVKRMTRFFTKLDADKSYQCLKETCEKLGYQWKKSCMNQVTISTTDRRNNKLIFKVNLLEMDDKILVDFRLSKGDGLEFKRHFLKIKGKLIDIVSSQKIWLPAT

CN1CCN(c2cc(-c3ccncc3)c(-c3ccc4ccccc4c3)nn2)CC1  activation (DRD1 (Homo sapiens, UniProt P21728); agonist, FLIPR; 12.5 µM): 0.8%
COc1ccc(N2C(=O)N(c3c(C)cccc3Cl)Cc3cnc(Nc4ccc(C5CCN(C)CC5)cc4OC)nc32)nc1  inhibition (SRPK2 (Homo sapiens, UniProt P78362); kinase activity; 0.5 µM): 2.38%
O=C(c1ccc(Cl)cc1)N1CCN2C(=O)N(OC(=O)N3CCOc4ccccc43)C(=O)C2C1 (stereo not drawn)  median ratio (Acyl-protein thioesterase 1 (Homo sapiens, UniProt O75608); enzyme activity, inhibitor, MS-based ABPP; SW-620 in situ; 10 µM, 2 h, 37 °C; baseline: compound over DMSO, lower = stronger inhibition): 1.12
Nc1ncc(-c2nc(N3CCOCC3)nc(N3CCOCC3)n2)c(C(F)F)n1  remaining binding (PIK3CA (Homo sapiens, UniProt P42336, C420R); KINOMEscan; 10 µM): 0%
[2H]c1c([2H])c([C@]2([2H])CCCN2C(=O)C(C)(C)Oc2ccc3cn[nH]c3c2)c([2H])c([2H])c1C([2H])([2H])[2H]  remaining binding (CHEK1 (Homo sapiens, UniProt O14757); KINOMEscan; 1 µM; baseline: DMSO control): 84%
O=C(Nc1cccnn1)N1CCC(=Cc2cccc(Oc3ccc(C(F)(F)F)cn3)c2)CC1  inhibition of binding (ESR2 (Homo sapiens, UniProt Q92731); radioligand binding; 10 µM, with: [3H]estradiol): -5%
COC(=O)[C@@]1(O)C[C@H]2O[C@]1(C)n1c3ccccc3c3c4c(c5c6ccccc6n2c5c31)C(=O)NC4  remaining activity (MAPK3 (Homo sapiens, UniProt P27361); ADP-Glo; 1 µM, with: substrate MBP): 111%
O=C(Nc1cnccc1Cl)N1CCN(Cc2ccc3c(c2)OC(F)(F)O3)CC1  inhibition (PRKD2 (Homo sapiens, UniProt Q9BZL6); kinase activity, inhibitor; 50 µM, human, with: MAPKAPK substrate): -3%
C[C@H]1CN(c2n[nH]c3nc(N[C@H]4CC[C@H](NS(=O)(=O)CCC(F)(F)F)CC4)ncc23)CCO1  relative abundance (Prohibitin-2 (PHB2, Homo sapiens, UniProt Q99623); inhibitor, Kinobeads competition profiling; 0.8 µM; baseline: vehicle): 1.11

Excerpt of the above:
COC(=O)[C@@]1(O)C[C@H]2O[C@]1(C)n1c3ccccc3c3c4c(c5c6ccccc6n2c5c31)C(=O)NC4  remaining activity (MAPK3 (Homo sapiens, UniProt P27361); ADP-Glo; 1 µM, with: substrate MBP): 111%
